Measurements collected from several papers.
Compare with care: the assays were run in different laboratories. ≈ marks a conversion by molar mass, not a printed value.

SMILES = OC[C@H]1O[C@@H](n2ccc3c(SCc4ccc(Cl)c(Cl)c4)ncnc32)[C@H](O)[C@@H]1O; organism = Toxoplasma gondii; assay = [3H]uracil incorporation; test system = human fibroblasts, RH wild type; setting = 10 µM; quantity = survival; value = 51%
SMILES = CN(C)C(=O)/C(C#N)=C/c1ccc(-c2nc3cnc4c(ccn4C)c3n2C2CCCCC2)o1; organism = mouse hepatitis virus; assay = viral replication; test system = nanoluciferase reporter; setting = 1 µM; quantity = inhibition; value = 30%
SMILES = Cn1c(=O)ccc2ccc(F)c(CCNC[C@H]3CN(c4cnc5c(n4)NC(=O)CO5)C(=O)O3)c21; organism = Serratia marcescens; quantity = MIC50; value = 0.25 µg/mL (≈ 0.534 µM)
SMILES = CN(Cc1cnc2nc(N)nc(N)c2n1)c1ccc(C(=O)N[C@@H](CCC(=O)O)C(=O)O)cc1; organism = human coronavirus OC43; assay = virus-induced cell killing; test system = MRC-5; setting = maximum over 10 doses; quantity = maximum inhibition; value = 0%
SMILES = CCc1cncnc1N1CCN(Cc2nc3ccc(C(F)(F)F)cc3[nH]2)CC1; organism = mouse hepatitis virus; assay = viral replication; test system = nanoluciferase reporter; setting = 1 µM; quantity = inhibition; value = 0%
SMILES = C[C@]12CC[C@@H]3c4ccc(O)cc4CC[C@H]3[C@@H]1CC[C@@H]2O; organism = human coronavirus OC43; assay = virus-induced cell killing; test system = MRC-5; setting = screen; quantity = maximum inhibition; value = 5.66%
SMILES = COC(=O)[C@@H]1[C@@H](c2ccccc2)[C@]2(c3ccc(OC)cc3)Oc3cc(OC)cc(OC)c3[C@@]23N=C(C)N[C@@]13O; organism = Hepatitis E virus; assay = viral replication; test system = HepG2 HEV-3 replicon, genotype 3; setting = 24 h; quantity = EC50; value = 2.45 nM
SMILES = O=C(O)CSc1ncnc2sc(-c3cc4ccccc4s3)cc12; organism = mouse hepatitis virus; assay = viral replication; test system = nanoluciferase reporter; setting = 1 µM; quantity = inhibition; value = -48%
SMILES = COC(=O)N[C@H](C(=O)N1CCC[C@H]1c1ncc(-c2ccc(-c3ccc(-c4cnc([C@@H]5CCCN5C(=O)[C@@H](NC(=O)OC)C(C)C)[nH]4)cc3)cc2)[nH]1)C(C)C; organism = Hepatitis C virus; test system = replicon cells, genotype 1a; setting = 50% effect level, together with: NS3 inhibitor, ratio 2.5:1; quantity = combination index; value = 1.12
SMILES = COc1ccccc1-c1cc(Nc2cccc(CS(N)(=O)=O)c2)ncn1; organism = mouse hepatitis virus; assay = viral replication; test system = nanoluciferase reporter; setting = 1 µM; quantity = inhibition; value = -17%
SMILES = CS(=O)(=O)CCCn1c(Cn2c(=O)n(CC(F)(F)F)c3ccncc32)cc2cc(Cl)ccc21; organism = respiratory syncytial virus; assay = RT-qPCR; test system = hospitalized infants 1-24 months, nasal swab; setting = oral, 1-9 mg/kg daily, day 7, all doses combined; how to read = baseline: placebo; quantity = LS mean difference vs placebo; value = 0.27 log10 copies/mL
SMILES = [N-]=[N+]=CC(=O)OC[C@H](N)C(=O)O; organism = human coronavirus OC43; assay = virus-induced cell killing; test system = MRC-5; setting = screen; quantity = maximum inhibition; value = 6.21%
SMILES = C[C@@H]1C[C@@H]([C@H](O)CC2CC(=O)NC(=O)C2)C(=O)[C@@H](C)C1; organism = Mus musculus; assay = gene silencing, high-content imaging; test system = LDR reporter GFP cells; setting = 30 h, retest, mean of two runs; quantity = Emax; value = 49%
SMILES = Nc1ncnc2c1ncn2[C@@H]1O[C@@H]2COP(=O)(O)O[C@H]3[C@@H](O)[C@H](n4cnc5c(=O)[nH]cnc54)O[C@@H]3COP(=O)(O)O[C@H]2[C@H]1O; organism = West Nile virus; assay = RNA sequencing, refers to: cell junction organization R-HSA-446728; test system = HFF-1 cells; setting = concentration not given, downregulated pathway; how to read = baseline: WNV-infected untreated cells; quantity = fold enrichment; value = 6.73
SMILES = COc1ccc([C@@]23Oc4cc(OC)cc(OC)c4[C@@]24N=C(C)N[C@@]4(O)[C@H](C(=O)N(C)OC)[C@H]3c2ccccc2)cc1; organism = Hepatitis E virus; assay = viral replication; test system = HepG2 HEV-3 replicon, genotype 3; setting = 48 h; quantity = EC50; value = 1.14 nM
SMILES = COc1cc2c3c(c1OC)-c1ccccc1C[C@H]3N(C)CC2; organism = Toxoplasma gondii; assay = parasite growth, luciferase reporter; test system = HFF, tachyzoite; setting = 72 h; quantity = EC50; value = 21500 nM
SMILES = C[C@@H]1CCN(C(=O)CC#N)C[C@@H]1N(C)c1ncnc2[nH]ccc12; organism = human coronavirus OC43; assay = virus-induced cell killing; test system = MRC-5; setting = screen; quantity = maximum inhibition; value = 12.3%
SMILES = O=[N+]([O-])c1cc2c(ccc3c2ccc2cc([N+](=O)[O-])oc23)o1; organism = Mycobacteroides abscessus; assay = REMA; test system = ATCC 19977; quantity = MIC90; value = > 32 µg/mL
SMILES = CN1CC[C@@]2(C)c3cc(OC(=O)Nc4ccccc4)ccc3N(C)[C@@H]12; organism = Toxoplasma gondii; assay = parasite growth; test system = HFF, bradyzoite, glutamine-induced; quantity = EC90; value = 32600 nM
SMILES = CCCCCCCCCCCCCCCCCCO; organism = hepatitis B virus; test system = HepAD38; setting = 25 µM, 48 h; quantity = cccDNA level; value = no effect
SMILES = CN[C@H](CC(C)C)C(=O)N[C@H]1C(=O)N[C@@H](CC(N)=O)C(=O)N[C@H]2C(=O)N[C@H]3C(=O)N[C@H](C(=O)N[C@H](C(=O)O)c4cc(O)cc(O)c4-c4cc3ccc4O)[C@H](O)c3ccc(c(Cl)c3)Oc3cc2cc(c3O[C@@H]2O[C@H](CO)[C@@H](O)[C@H](O)[C@H]2O[C@H]2C[C@](C)(N)[C@H](O)[C@H](C)O2)Oc2ccc(cc2Cl)[C@H]1O; organism = Staphylococcus, coagulase-negative; quantity = MIC90; value = 2 µg/mL (≈ 1.38 µM)
SMILES = NCCCC(N)(C(=O)O)C(F)F (racemic); organism = human coronavirus OC43; assay = virus-induced cell killing; test system = MRC-5; setting = screen; quantity = maximum inhibition; value = 22.5%
SMILES = O=c1[nH]sc2cc(F)ccc12; organism = Mus musculus; assay = gene silencing, high-content imaging; test system = LDR reporter GFP cells; setting = retest run 2; quantity = maximal activity; value = 62%
SMILES = CC[C@H](C)[C@H](NC(=O)[C@H](C)NC(=O)[C@H](CCCCN)NC(=O)[C@H](CC(C)C)NC(=O)[C@H](C)NC(=O)[C@@H](NC(=O)[C@H](Cc1c[nH]cn1)NC(=O)[C@H](CC(C)C)NC(=O)[C@@H](NC(=O)[C@@H](NC(=O)[C@H](CCCCN)NC(=O)[C@H](C)NC(=O)[C@H](C)NC(=O)[C@H](CO)NC(=O)[C@H](CCCCN)NC(=O)[C@H](Cc1ccccc1)NC(=O)[C@@H](NC(=O)[C@H](CCCCN)NC(=O)[C@H](CC(C)C)NC(=O)[C@H](Cc1ccccc1)NC(=O)[C@H](CO)NC(=O)[C@H](CCCCN)NC(=O)[C@H](Cc1c[nH]c2ccccc12)NC(=O)[C@H](CCCCN)NC(C)=O)[C@@H](C)O)[C@@H](C)O)C(C)C)[C@@H](C)O)C(=O)N[C@@H](CO)C(=O)N[C@@H](CO)C(N)=O; organism = Streptococcus pyogenes; test system = erythromycin-resistant; setting = 19 strains; quantity = MIC50; value = 32 µg/mL (≈ 10.9 µM)
SMILES = O=[N+]([O-])c1cc2cc3ccc4oc([N+](=O)[O-])cc4c3cc2o1; organism = Salmonella enterica; assay = REMA; quantity = MIC90; value = < 0.25 µg/mL
SMILES = NC(=O)c1ncn([C@@H]2O[C@H](CO)[C@@H](O)[C@H]2O)n1; organism = Hepatitis E virus; assay = viral replication, RT-qPCR of encapsidated RNA, refers to: HEV RNA copies; test system = genotype 1, full-genome replicon, cell supernatant; setting = 3.1 µM, 48 h, together with: artesunate 23.4 µM; quantity = inhibition; value = 86.6%
SMILES = C[C@H]1CCC/C=C/[C@@H]2C[C@H](O)C[C@H]2[C@H](O)/C=C/C(=O)O1; organism = Toxoplasma gondii; assay = bradyzoite growth; setting = glutamine-induced bradyzoites, glucose-free medium; quantity = EC50; value = 160 nM
SMILES = CC(C)[C@H](NC(=O)[C@H](CCCNC(=N)N)NC(=O)[C@H](Cc1c[nH]c2ccccc12)NC(=O)[C@H](CCCNC(=N)N)NC(=O)[C@H](Cc1c[nH]c2ccccc12)NC(=O)[C@H](Cc1c[nH]c2ccccc12)NC(=O)[C@H](Cc1c[nH]c2ccccc12)NC(=O)[C@H](CCCNC(=N)N)NC(=O)[C@H](Cc1c[nH]c2ccccc12)NC(=O)[C@@H](N)CCCNC(=N)N)C(N)=O; organism = Candida albicans; assay = broth microdilution; test system = 14936, RPMI 1640-MOPS; setting = 48 h, 30 °C; quantity = MIC; value = 8 µM (≈ 13.4 µg/mL)
SMILES = C[N+](C)(C)CCO.C[N+](C)(C)CCO.[SH-].[SH-].[S]=[Mo]=[S]; organism = human coronavirus OC43; assay = virus-induced cell killing; test system = MRC-5; setting = screen; quantity = maximum inhibition; value = 16.4%
SMILES = COc1ccc2c(ccc3oc([N+](=O)[O-])cc32)c1; organism = Mycobacteroides abscessus; assay = REMA; test system = ATCC 19977; quantity = MIC90; value = 0.5 µg/mL (≈ 2.06 µM)
SMILES = OC[C@H]1O[C@@H](n2ccc3c(SCc4ccc(F)cc4F)ncnc32)[C@H](O)[C@@H]1O; organism = Toxoplasma gondii; assay = [3H]uracil incorporation; test system = human fibroblasts, RH wild type; setting = 5 µM; quantity = survival; value = 76.1%
SMILES = CCCCCC[C@H]1C(=O)O[C@H](C)[C@H](NC(=O)c2cccc(NC=O)c2O)C(=O)O[C@@H](C)[C@@H]1OC(=O)CC(C)C; organism = human coronavirus OC43; assay = virus-induced cell killing; test system = MRC-5; setting = screen; quantity = maximum inhibition; value = 5.63%
SMILES = Cc1ccc(CSc2ncnc3c2ccn3[C@@H]2O[C@H](CO)[C@@H](O)[C@H]2O)cc1; organism = Toxoplasma gondii; assay = [3H]uracil incorporation; test system = human fibroblasts, RH wild type; setting = 10 µM; quantity = survival; value = 17.4%
SMILES = CCCCc1c([N+](=O)[O-])oc2ccc3ccccc3c12; organism = Mycobacteroides abscessus; assay = REMA; test system = ATCC 19977; quantity = MIC90; value = 32 µg/mL (≈ 119 µM)
SMILES = COc1ccccc1[C@H](Cn1c(=O)n(C(C)(C)C(=O)O)c(=O)c2c(C)c(-c3ncco3)sc21)OC1CCOCC1; organism = human coronavirus OC43; assay = virus-induced cell killing; test system = MRC-5; setting = screen; quantity = maximum inhibition; value = 12%
